Measured values pooled from the literature.
Compare with care: the assays were run in different laboratories. Several values in a cell are separate wells, animals, samples, runs or records. ± gives the spread as reported.
BCHE: Cholinesterase (BCHE, Equus caballus, UniProt P81908)
Putative glycogen synthase kinase D105E/Y102F: Putative glycogen synthase kinase (Leishmania major, UniProt Q4QE15, D105E/Y102F)

Structure (SMILES) | tested on | test | test system | setting | quantity | value
COC(=O)/C=C/c1cc(O)ccc1O | Epidermal growth factor receptor (EGFR, Homo sapiens, UniProt P00533) | kinase activity, ADP luminescence | – | added: 200 µM ATP | IC50 | > 10 µM
Cc1ccc(C2=NN(C(=O)CCC(=O)O)C(c3cn(-c4ccccc4)nc3-c3ccc(C)cc3)C2)cc1 (centres unmarked) | Replication protein A 70 kDa DNA-binding subunit (RPA1, Homo sapiens, UniProt P27694) | protein-nucleic acid interaction, inhibitor, mobility shift | – | – | IC50 | 20.3 µM
O=C(NCCCCCCCn1ccc2ccc(F)cc21)Oc1ccccc1 | BCHE | enzyme activity, inhibitor, HPLC | – | – | IC50 | 3.5 µM and ~4 µM
CCCc1nn(C)c2c(=O)[nH]c(-c3cc(S(=O)(=O)N4CCN(C)CC4)ccc3OCC)nc12 | Solute carrier organic anion transporter family member 1B1 (SLCO1B1, Homo sapiens, UniProt Q9Y6L6) | transport, inhibitor | – | 10 (unit not given), pre-incubation, added: estrone-3-sulfate | IC50 | 13.3 ± 2.2 µM
O=c1cc(-c2ccc3c(c2)OCO3)[nH]c2ccccc12 | Acetylcholinesterase (ACHE, Homo sapiens, UniProt P22303) | enzyme activity, inhibitor | – | – | IC50 | 197 ± 18 µM
COCCCNc1c2c3c(cccc3[nH]c1=O)C(=O)c1ccccc1-2 | ROP18 (Toxoplasma gondii, UniProt Q2PAY2) | kinase activity, inhibitor | – | 3 h, room temperature, added: peptide FL-T 1 µM, 60 µM ATP | IC50 | > 10 µM
C=C(NC(=O)C(=C)NC(=O)c1csc(C2=N[C@@H]3c4csc(n4)[C@H]4NC(=O)c5csc(n5)[C@H]([C@](C)(O)[C@@H](C)O)NC(=O)[C@H]5CSC(=N5)/C(=C/C)NC(=O)[C@H]([C@@H](C)O)NC(=O)c5csc(n5)[C@]3(CC2)NC(=O)[C@H](C)NC(=O)C(=C)NC(=O)[C@H](C)NC(=O)[C@H]([C@@H](C)CC)N[C@@H]2C=Cc3c([C@H](C)O)cc(nc3[C@H]2O)C(=O)O[C@@H]4C)n1)C(N)=O | Proteasome subunit beta type-6 (PSMB6, Homo sapiens, UniProt P28072) | caspase-like activity, inhibitor | purified human 20S proteasome | 37 °C, 15 min preincubation, added: Ac-Nle-Pro-Nle-Asp-AMC | IC50 | 0.59 ± 0.06 µM
CC(C)C[C@H](NC(=O)OCc1ccccc1)C(=O)N[C@@H](CC1CCNC1=O)C(O)S(=O)(=O)O (some centres unmarked) | Replicase polyprotein 1ab, main protease (Feline coronavirus, UniProt Q98VG9) | enzyme activity, inhibitor, FRET | – | – | IC50 | 0.18 µM
Cc1cc(O)cc2c1O[C@](C)(CCC[C@H](C)CCC[C@H](C)CCCC(C)C(=O)O)CC2 (some centres unmarked) | Prostaglandin G/H synthase 2 (PTGS2, Homo sapiens, UniProt P35354) | enzyme activity, inhibitor, ELISA | – | – | IC50 | 4 µM
CN[C@H](CC(C)C)C(=O)N[C@H]1C(=O)N[C@@H](CC(N)=O)C(=O)N[C@H]2C(=O)N[C@H]3C(=O)N[C@H](C(=O)N[C@H](C(=O)O)c4cc(O)cc(O)c4-c4cc3ccc4O)[C@H](O)c3ccc(c(Cl)c3)Oc3cc2cc(c3O[C@@H]2O[C@H](CO)[C@@H](O)[C@H](O)[C@H]2O[C@H]2C[C@](C)(N)[C@H](O)[C@H](C)O2)Oc2ccc(cc2Cl)[C@H]1O | Transglycosylase (Staphylococcus aureus, UniProt Q9R744) | transglycosylation, inhibitor, TLC radioactivity | RN4220 | 1 h, pH 7.0, 30 °C, 10 % DMSO, added: 4 µM [14C]-C35-depsi-lipid II (D-Ala-D-Lac) | IC50 | > 64 µM
Clc1ccc(C(c2ccccc2Cl)C(Cl)(Cl)Cl)cc1 (centres unmarked) | Voltage-gated inwardly rectifying potassium channel KCNH2 (KCNH2, Homo sapiens, UniProt Q12809) | thallium influx, inhibitor, confirmation | hERG-transduced cells | – | IC50 | 22.2 ± 4.1 µM
O=C(OC(C(F)(F)F)C(F)(F)F)N1CCC(C(O)(c2ccc3c(c2)OCO3)c2ccc3c(c2)OCO3)CC1 | Monoglyceride lipase (Mgll, Mus musculus, UniProt O35678) | competitive ABPP | mouse brain membrane proteome | added: FP-Rh probe | IC50 | 0.015 µM
C=CCCC[C@](C)(NC(=O)[C@H](CC(C)C)NC(=O)[C@H](CCCCN)NC(=O)[C@H](CC(C)C)NC(=O)[C@](C)(CCCC=C)NC(=O)[C@H](Cc1ccccc1)NC(=O)[C@H](Cc1ccc(O)cc1)NC(=O)[C@H](C)NC(=O)[C@@H](N)[C@@H](C)O)C(=O)NCC(=O)N[C@@H](CCCNC(=N)N)C(=O)N[C@@H](Cc1c[nH]c2ccccc12)C(N)=O | PC4 and SFRS1-interacting protein, with HIV integrase (Homo sapiens, UniProt O75475) | LEDGF/p75-integrase interaction, inhibitor | – | – | IC50 | 15 µM
CC1=C(C(=O)NC(=O)c2cnccn2)C(c2cccc([N+](=O)[O-])c2)NC(=S)N1 (centres unmarked) | BCHE | – | – | – | IC50 | 5.38 ± 0.01 µM
CC#Cc1ccc2ccc3ccccc3c2c1 | Cytochrome P450 1B1 (CYP1B1, Homo sapiens, UniProt Q16678) | enzyme activity, inhibitor | – | 5 s, pH 7.4 | IC50 | < 0.05 µM
Nc1ncnc2c1ncn2[C@@H]1O[C@H](COP(=O)(O)OP(=O)(O)OP(=O)(O)OP(=O)(O)OC[C@H]2O[C@@H](n3cnc4c(N)ncnc43)[C@H](O)[C@@H]2O)[C@@H](O)[C@H]1O | Protein adenylyltransferase VopS (vopS, Vibrio parahaemolyticus serotype O3:K6, UniProt Q87P32) | AMPylation activity, inhibitor, fluorescence polarisation | – | 3 h, added: Cdc42 Q61L 5 µM, Fl-ATP 250 nM | IC50 | 11 µM
O=C1Nc2ccc(S(=O)(=O)O)cc2C1=C1Nc2ccccc2C1=NO | Putative glycogen synthase kinase D105E/Y102F | enzyme activity, inhibitor | – | 90 min, 30 °C, added: ATP 2 µM | IC50 | 2.29 µM
C[C@H]1[C@@H](CC(=O)NCCCC(=O)N[C@@H](CC(=O)NC(C)(C)C)C(=O)NCCNC(=O)c2cc(-c3ccccc3F)ccc2F)O[C@@H]2O[C@@]3(C)CC[C@H]4[C@H](C)CC[C@@H]1[C@@]24O3 | 20S proteasome (Plasmodium falciparum, UniProt A0A5K1K7U1+Q8IJT1) | enzyme activity, inhibitor | – | added: suc-LLVY-AMC substrate, PA28alpha | IC50 | 0.0044 ± 0.0005 µM

Structure (SMILES) | tested on | test | test system | setting | quantity | value
CC[C@H](C)[C@H](NC(=O)[C@H](CO)NC(=O)[C@H](Cc1ccc(O)cc1)NC(=O)[C@H](CC(=O)O)NC(=O)[C@H](CO)NC(=O)[C@@H](NC(=O)[C@@H](O)Cc1ccccc1)[C@@H](C)CC)C(=O)N[C@@H](C)C(=O)N[C@@H](CC(C)C)C(=O)N[C@@H](CC(=O)O)C(=O)N[C@@H](CCCCN)C(=O)N[C@H](C(=O)N[C@@H](CCCNC(=N)N)C(=O)N[C@@H](CCC(N)=O)C(=O)N[C@@H](CCC(N)=O)C(=O)N[C@@H](CCC(=O)O)C(=O)N[C@@H](Cc1ccccc1)C(=O)N[C@H](C(=O)N[C@@H](CC(N)=O)C(=O)N[C@@H](Cc1c[nH]c2ccccc12)C(=O)N[C@@H](CC(C)C)C(=O)N[C@@H](CC(C)C)C(=O)N[C@@H](C)C(=O)N[C@@H](CCC(N)=O)C(=O)N[C@@H](CCCCN)C(=O)NCC(=O)O)C(C)C)[C@@H](C)CC | Gastric inhibitory polypeptide receptor (GIPR, Homo sapiens, UniProt P48546) | cAMP production, antagonist | BHK | 3 h, 37 °C, added: GIP 50 pM | IC50 | 0.0487 µM
CC(C)NP(=O)(NC(C)C)OP(=O)(NC(C)C)NC(C)C | Butyrylcholinesterase (Bche, Rattus norvegicus, UniProt Q9JKC1) | enzyme activity, inhibitor, radiometric | rat, adult, cortex homogenate | 15 min, 37 °C | IC50 | 4 µM
CNCCCNC(=O)O[C@H]1CC[C@@]2(C)[C@H](CC[C@@H]3[C@@H]2CC[C@]2(C)[C@@H](c4ccc(=O)oc4)CC[C@]32O)C1 | Sodium/potassium-transporting ATPase subunit alpha-1 (atp1a1, Xenopus laevis, UniProt Q92123) | Na+,K+ pump current, inhibitor, two-electrode voltage clamp | uninjected Xenopus laevis oocytes | -60 mV holding | IC50 | ~0.1 µM and 0.101 µM
COc1ccc(-c2cc3nccn3c(Nc3ncccc3C(N)=O)n2)cc1OC | ERRα (human) | reporter gene, antagonist, luciferase reporter qHTS | – | – | IC50 | 2.98 µM
O=C(Cc1ccc(I)cc1)N[C@H]1CCOC1=O | HTH-type quorum-sensing regulator RhlR (rhlR, Pseudomonas aeruginosa, UniProt P54292) | reporter gene, antagonist | – | – | IC50 | 8.1 µM
C[C@@H]1C[C@H]2[C@@H]3CCC4=CC(=O)C=C[C@]4(C)[C@@]3(Cl)[C@@H](O)C[C@]2(C)[C@@]1(OC(=O)c1ccco1)C(=O)CCl | Multidrug resistance-associated protein 1 (ABCC1, Homo sapiens, UniProt P33527) | efflux, inhibitor, flow cytometry | SupT1 cells overexpressing ABCC1 | added: SYTO 9 100 nM | IC50 | 1.2 ± 1 µM
CN1C(=O)[C@]23SS[C@@]1(C)C(=O)N2[C@H]1Nc2ccccc2[C@@]1([C@@]12c4ccccc4N[C@@H]1N1C(=O)[C@@]4(C)SS[C@]1(C(=O)N4C)[C@H]2O)[C@@H]3O | N-lysine methyltransferase KMT5A (KMT5A, Homo sapiens, UniProt Q9NQR1) | methyltransferase activity, inhibitor | – | added: 1 µM [3H]SAM | IC50 | > 10 µM
CN[C@@](C)(C[18F])C(=O)O | – | – | SCID mouse U87 xenograft, brain | 60 min, post injection | tissue uptake | 0.5 ± 0.1 %ID/g
CCCCC(O)(Cn1cncn1)c1ccc(Cl)cc1Cl (centres unmarked) | Androgen receptor (AR, Homo sapiens, UniProt P10275) | reporter gene, antagonist | T47D-ARE | 24 h, added: testosterone 20 nM | IC50 | 23.2 µM
CC(C)(O/N=C(\C(=O)N[C@@H]1C(=O)N2C(C(=O)[O-])=C(C[n+]3ccccc3)CS[C@H]12)c1csc(N)n1)C(=O)O | PA3047 (Pseudomonas aeruginosa, UniProt Q9HZG1) | binding, Bocillin FL competition | Pseudomonas aeruginosa 1771 membranes | PBP 4, added: Bocillin FL 100 µM | IC50 | 2.93 µM
O=C1Nc2ccccc2/C1=C/c1cnc[nH]1 | Putative glycogen synthase kinase D105E/Y102F | enzyme activity, inhibitor | – | 90 min, 30 °C, added: ATP 2 µM | IC50 | 6.76 µM
COc1ccc(NC(=O)N2CCCCN3[C@H](CN(C)C(C)C)[C@H](c4ccc(C#Cc5ccccc5)cc4)[C@@H]3C2)cc1 | Phenylalanine--tRNA ligase alpha subunit (Plasmodium falciparum, UniProt Q8I246) | aminoacylation activity, inhibitor | – | – | IC50 | 0.086 µM
O=C1C=Cc2ccccc2C1=O | Tyrosine-protein phosphatase non-receptor type 2 (PTPN2, Homo sapiens, UniProt P17706) | enzyme activity | – | 10 min preincubation | IC50 | 0.053 µM
N[C@@H](Cn1cc(I)c(=O)[nH]c1=O)C(=O)O | Glutamate receptor 3, S1S2 ligand-binding domain (Rattus norvegicus, UniProt P19492, del531-655/S657T/V656G) | – | – | – | IC50 | 0.79 ± 0.14 µM
Cc1cc(C)cc(-c2nnc(Sc3cc(Cl)nc(Sc4ccccc4)n3)[nH]2)c1 | Protein translocase subunit SecA (secA, Escherichia coli, UniProt P10408) | ATPase activity, inhibitor | – | – | IC50 | 50 µM
O=C(O)c1ccccc1-c1c2ccc(=O)c([As]3SCCS3)c-2oc2c([As]3SCCS3)c(O)ccc12 | Tyrosine-protein phosphatase non-receptor type 11 (PTPN11, Homo sapiens, UniProt Q06124) | enzyme activity, inhibitor | crude Escherichia coli lysate | 120 min, 37 °C, added: pNPP | IC50 | 6 µM
CCN1C[C@H](C)n2c(c(O)c3c(=O)n(Cc4ccc(F)c(Cl)c4)nc(C(=O)NC)c32)C1=O | Gag-Pol polyprotein, integrase (gag-pol, Human immunodeficiency virus 1, UniProt P12497) | enzyme activity, inhibitor | – | – | IC50 | 0.042 µM

Some of these lines once more:
Structure (SMILES) | tested on | test | test system | setting | quantity | value
C=C(NC(=O)C(=C)NC(=O)c1csc(C2=N[C@@H]3c4csc(n4)[C@H]4NC(=O)c5csc(n5)[C@H]([C@](C)(O)[C@@H](C)O)NC(=O)[C@H]5CSC(=N5)/C(=C/C)NC(=O)[C@H]([C@@H](C)O)NC(=O)c5csc(n5)[C@]3(CC2)NC(=O)[C@H](C)NC(=O)C(=C)NC(=O)[C@H](C)NC(=O)[C@H]([C@@H](C)CC)N[C@@H]2C=Cc3c([C@H](C)O)cc(nc3[C@H]2O)C(=O)O[C@@H]4C)n1)C(N)=O | Proteasome subunit beta type-6 (PSMB6, Homo sapiens, UniProt P28072) | caspase-like activity, inhibitor | purified human 20S proteasome | 37 °C, 15 min preincubation, added: Ac-Nle-Pro-Nle-Asp-AMC | IC50 | 0.59 ± 0.06 µM
CC(C)C[C@H](NC(=O)OCc1ccccc1)C(=O)N[C@@H](CC1CCNC1=O)C(O)S(=O)(=O)O (some centres unmarked) | Replicase polyprotein 1ab, main protease (Feline coronavirus, UniProt Q98VG9) | enzyme activity, inhibitor, FRET | – | – | IC50 | 0.18 µM
Cc1cc(O)cc2c1O[C@](C)(CCC[C@H](C)CCC[C@H](C)CCCC(C)C(=O)O)CC2 (some centres unmarked) | Prostaglandin G/H synthase 2 (PTGS2, Homo sapiens, UniProt P35354) | enzyme activity, inhibitor, ELISA | – | – | IC50 | 4 µM
